Measurements collected from several papers.
Protocols differ between the studies behind these lines. Values joined by “and” are separate records of one study, mostly repeats; a detail may differ. ± gives the spread as reported.

With CNS(=O)(=O)Nc1nccc(Cc2c(C)c3ccc(Oc4ncccc4F)cc3oc2=O)c1F the IC50 was 11.9 nM (HCC202; cell viability; 7 days).
For Nc1nc2cc(C(=O)c3ccc(F)cc3)ccc2[nH]1, the revertants was 45.3 revertants/plate (Escherichia coli; Ames preincubation test; WP2 uvrA; 78.0 µg/plate, without S9).
Under “log2 fold change”, COC1CN([C@H]2CC[C@H]([C@@]3(C)Oc4c(Cl)cc(C(=O)NCc5c(SC)cc(C)[nH]c5=O)c(C)c4O3)CC2)C1 is recorded as 0.435 (RNA-seq, measured: CACNA1E mouse homolog; mouse, HT-1376 xenograft, whole blood; dose not given; relative to: vehicle).
O=C1NC2(CC2)COc2ncc(F)cc2[C@H]2COCCN2c2ccn3ncc1c3n2 has a revertant colonies of 73 ± 8 revertants/plate (Salmonella typhimurium; Ames test; TA100; 50 µg/plate, 48 h, together with: without S9).
CC(C)OCCOCc1ccc(OCC(O)CN(N=O)C(C)C)cc1 (stereo not drawn): “revertant fold increase” 0.6 fold (Salmonella typhimurium; Ames test; TA1535; 1580 µg/plate, without metabolic activation; relative to: solvent control).
With CCOC(=O)Cc1n[nH]c2nc(N)[nH]c(=O)c2c1=O the intracellular accumulation was 6.76 ± 1 µM (Escherichia coli; LC-MS/MS; BW25113; 100 µM, 10 min, 37 °C).
O=C(O)CCCOc1ccc(O)cc1-c1cc(-c2ccccc2C(F)(F)F)n(-c2ccccc2)n1: “growth inhibitory concentration” 5000 µg/plate (Escherichia coli; Ames test; WP2 uvrA; concentration not given, without metabolic activation).
For Cc1ncsc1-c1ccc(C(C)NC(=O)C2CC(O)CN2C(=O)C(NC(=O)CCCCCCCCCCN2CCCC(Nc3ncc(Cl)c(Nc4ccccc4S(=O)(=O)C(C)C)n3)C2)C(C)(C)C)cc1 (stereo not drawn), “log2 fold change” read -1.41 (22Rv1; RNA-seq, measured: SLC24A1 mRNA; concentration not given; relative to: DMSO).
With C=C(NC(=O)c1csc(-c2nc3c(cc2O)-c2nc(cs2)C(=O)NC(C(C)O)C(=O)NC(=C(C)OC)c2nc(cs2)C(=O)NC2c4nc(cs4)C(=O)NC(COC(=O)c4c5c6c(cccc6n4O)COC(=O)C(OC4CC(C)(O)C(N(C)C)C(C)O4)C2OC5)c2nc-3cs2)n1)C(N)=O (stereo not drawn) the AUC(0-inf) was 5570 ng·h/mL (Sprague-Dawley rats, both sexes, plasma; intravenous infusion, 18 mg/kg).
O=C1C2CC3CC1CC(C(=O)N1CCN(c4ccc([N+](=O)[O-])c5ncccc45)CC1)(C3)C2 — result for “mean revertant colonies”: 6 colonies/well (Salmonella typhimurium; Ames test; TA98; 0.31 µg/well, without S9).
With Nc1nc2[nH]nc(CC(=O)O)c(=O)c2c(=O)[nH]1 the intracellular accumulation was 1.84 µM (Escherichia coli; LC-MS/MS; BW25113; 100 µM, 10 min, 37 °C).
For Nc1ncc(-c2cc(-c3cnn(CC(F)(F)F)c3)ncc2F)nc1C(=O)NC1CNCC(F)C1 (stereo not drawn), the remaining binding was 71% (MLK2; KINOMEscan; 1 µM; relative to: DMSO control).
The intracellular accumulation of CC(CC(=O)O)c1n[nH]c2nc(N)[nH]c(=O)c2c1=O (stereo not drawn) is reported as 3.02 ± 0.2 µM (Escherichia coli; LC-MS/MS; BW25113; 100 µM, 10 min, 37 °C).
CCN(CC)CC#CCNc1ccnc2cc(Cl)ccc12: “revertants per well” 1 (Salmonella typhimurium; mini-Ames test; TA97a; 250.0 µg/well, with rat liver S9).
With COC(=O)Nc1nc2cc(C(O)c3ccc(F)cc3)ccc2[nH]1 (stereo not drawn) the revertants was 20.3 revertants/plate (Salmonella typhimurium; Ames preincubation test; TA1535; 54.7 µg/plate, without S9).
Under “log2 fold change”, CN1CCCNC(=O)c2cccc(c2)C(=O)NCCCN(C)CCCNc2cccc3c2C(=O)c2cccc(c2C3=O)NCCC1 is recorded as -0.803 (SAS; RNA-Seq, measured: STK3 mRNA; 1 µM, 6 h; relative to: untreated cells).
Cn1nnnc1NCc1nn(C)c2nc(N)[nH]c(=O)c2c1=O has an intracellular accumulation of 7.48 ± 0.3 µM (Escherichia coli; LC-MS/MS; BW25113; 100 µM, 10 min, 37 °C).
For CC(C)(C)NCC(SS(=O)(=O)O)c1ccccc1 (stereo not drawn), the body weight was 31 g and 32.9 g and 32.3 g (Schistosoma mansoni; perfusion day 44; infected Swiss Webster mice; 600 mg/kg single dose, dosed day 1 post-infection).

For quick reference, copied from above:
Cn1nnnc1NCc1nn(C)c2nc(N)[nH]c(=O)c2c1=O has an intracellular accumulation of 7.48 ± 0.3 µM (Escherichia coli; LC-MS/MS; BW25113; 100 µM, 10 min, 37 °C).
